Experimental data collected from several papers.
Compare with care: the assays were run in different laboratories. ± marks the error that the study gave.
Organism: Salmonella typhimurium

Compound	test	system	setting	how to read	quantity	result
CN(N=O)c1ccc(F)cc1	mutagenicity, Ames plate incorporation	TA98	5000 µg/plate, 3 d, without S9, methanol		revertant colonies per plate	10.7 ± 3
O=[N+]([O-])c1ccc(N2CCN(CCC(O)c3ccc(F)cc3)CC2)c(C(F)(F)F)c1 (stereo not drawn)	SOS/umu test	TA1535/pSK1002	0.063 mg/mL, 4 h, without S9, lower range		survival	109%
N#C[C@@]1(n2ccc(N)nc2=O)O[C@H](CO)[C@@H](O)[C@H]1O		TA100	10 µM, without S9	reference: control	viability	99%
Cc1cc(C(=O)NC(C)(C)COc2cccc3c2C(N)=NS(=O)(=O)N3)cc(C)n1	Ames test, confirmatory	TA1535	1000 µg/plate, added: rat liver S9	reference: solvent control	revertant ratio	0.9
CN(CC(C)(C)C)N=O	mutagenicity, Ames plate incorporation	TA1535	50 µg/plate, without S9, methanol		revertant colonies per plate	25 ± 11
COc1cccc(-c2n[nH]c(SCc3ccccn3)n2)c1OC	Ames test, plate incorporation	TA1537	1.0 mg/plate, with rat liver S9		revertant colonies per plate	8
O=[N+]([O-])c1ccc(NC2CCNCC2)c(C(F)(F)F)c1	genotoxicity, SOS/umu test	TA1535/pSK1002	0.016 mg/mL, 4 h, without S9, full range		induction factor	0.8
CC(=O)N1CCC(C(=O)N2CCN3C(=O)c4cc(-c5ccccc5)ccc4NC(=O)C3C2)CC1 (stereo not drawn)		TA1535	5.0 µg/plate, added: rat liver S9		revertants per plate	15
O=[N+]([O-])c1ccc(N2CCC(NCCC(O)c3ccc(F)c4ccccc34)CC2)c(C(F)(F)F)c1 (stereo not drawn)	SOS response, SOS/umu test	TA1535/pSK1002, TGA medium	3.05e-05 mg/mL, 4 h, without S9	reference: untreated	induction factor	0.6
CC(C)N(C)N=O	mutagenicity, Ames plate incorporation	TA1537	500 µg/plate, 3 d, without S9, methanol		revertant colonies per plate	11.3 ± 6
Fc1ccc(C2=CCNCC2)cc1	SOS/umu test	TA1535/pSK1002, TGA medium	1 mg/mL, 4 h, added: 10% rat liver S9		survival	40.4%
COCCN(CCOC)N=O	mutagenicity, Ames plate incorporation	TA1535	2500 µg/plate, 3 d, without S9, methanol		revertant colonies per plate	23 ± 4
